Measurements from different studies.
± marks the error that the study gave.
KCNJ13 M125R: Inward rectifier potassium channel 13 (KCNJ13, Homo sapiens, UniProt O60928, M125R)
Chain of UniProt O60928 (whole entry, unmodified, looked up): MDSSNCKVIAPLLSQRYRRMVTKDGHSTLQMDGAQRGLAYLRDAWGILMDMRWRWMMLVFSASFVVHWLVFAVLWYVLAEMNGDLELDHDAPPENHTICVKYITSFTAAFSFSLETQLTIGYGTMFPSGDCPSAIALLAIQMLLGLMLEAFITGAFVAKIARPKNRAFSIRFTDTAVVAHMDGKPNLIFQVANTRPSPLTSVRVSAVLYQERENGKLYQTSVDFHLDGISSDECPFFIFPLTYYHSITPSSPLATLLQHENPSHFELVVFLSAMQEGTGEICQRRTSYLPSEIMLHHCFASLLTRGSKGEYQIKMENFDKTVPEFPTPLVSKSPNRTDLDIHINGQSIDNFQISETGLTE
Inward rectifier potassium channel 4: Inward rectifier potassium channel 4 (Homo sapiens, UniProt P48050)
Chain of UniProt P48050 (whole entry, looked up): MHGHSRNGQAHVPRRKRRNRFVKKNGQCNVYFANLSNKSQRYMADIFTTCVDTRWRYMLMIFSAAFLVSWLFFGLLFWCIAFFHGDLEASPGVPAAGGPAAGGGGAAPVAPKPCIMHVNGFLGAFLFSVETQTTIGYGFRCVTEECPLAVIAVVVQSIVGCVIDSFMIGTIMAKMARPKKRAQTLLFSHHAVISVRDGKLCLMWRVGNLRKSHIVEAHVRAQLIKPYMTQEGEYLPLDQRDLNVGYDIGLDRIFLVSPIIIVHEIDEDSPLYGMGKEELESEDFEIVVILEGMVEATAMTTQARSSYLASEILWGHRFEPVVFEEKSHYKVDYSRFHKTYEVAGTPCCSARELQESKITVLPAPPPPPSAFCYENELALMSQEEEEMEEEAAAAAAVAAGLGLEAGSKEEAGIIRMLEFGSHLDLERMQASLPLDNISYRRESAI
Urease: Urease (Canavalia ensiformis, UniProt P07374)
Chain of UniProt P07374 (whole entry, looked up): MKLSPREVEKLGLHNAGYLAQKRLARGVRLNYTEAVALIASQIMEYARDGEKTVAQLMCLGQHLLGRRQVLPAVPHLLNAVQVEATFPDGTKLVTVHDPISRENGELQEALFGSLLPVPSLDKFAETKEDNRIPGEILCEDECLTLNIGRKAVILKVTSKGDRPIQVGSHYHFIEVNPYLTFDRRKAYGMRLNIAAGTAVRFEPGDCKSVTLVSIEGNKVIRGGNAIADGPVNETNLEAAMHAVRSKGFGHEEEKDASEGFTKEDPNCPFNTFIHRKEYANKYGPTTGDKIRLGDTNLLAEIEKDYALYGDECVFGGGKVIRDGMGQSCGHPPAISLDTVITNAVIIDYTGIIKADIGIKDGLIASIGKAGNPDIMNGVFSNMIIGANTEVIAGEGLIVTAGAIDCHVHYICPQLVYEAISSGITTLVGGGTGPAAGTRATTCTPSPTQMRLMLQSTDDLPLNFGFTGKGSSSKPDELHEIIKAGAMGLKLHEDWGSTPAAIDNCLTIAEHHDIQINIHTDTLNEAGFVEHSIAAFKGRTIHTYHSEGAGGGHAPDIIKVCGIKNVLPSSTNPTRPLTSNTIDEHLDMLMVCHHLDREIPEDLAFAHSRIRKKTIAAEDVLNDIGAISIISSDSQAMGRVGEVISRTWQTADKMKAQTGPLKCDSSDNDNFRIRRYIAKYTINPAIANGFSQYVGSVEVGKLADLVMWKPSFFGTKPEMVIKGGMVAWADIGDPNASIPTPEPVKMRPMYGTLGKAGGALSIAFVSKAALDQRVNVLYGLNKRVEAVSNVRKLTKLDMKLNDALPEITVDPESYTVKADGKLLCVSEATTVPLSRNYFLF
Kir1 channel protein: Kir1 channel protein (Aedes aegypti, UniProt L0EQS9)
Cyp2b1: Cytochrome P450 2B1 (Cyp2b1, Rattus norvegicus, UniProt P00176)
Chain of UniProt P00176 (whole entry, looked up): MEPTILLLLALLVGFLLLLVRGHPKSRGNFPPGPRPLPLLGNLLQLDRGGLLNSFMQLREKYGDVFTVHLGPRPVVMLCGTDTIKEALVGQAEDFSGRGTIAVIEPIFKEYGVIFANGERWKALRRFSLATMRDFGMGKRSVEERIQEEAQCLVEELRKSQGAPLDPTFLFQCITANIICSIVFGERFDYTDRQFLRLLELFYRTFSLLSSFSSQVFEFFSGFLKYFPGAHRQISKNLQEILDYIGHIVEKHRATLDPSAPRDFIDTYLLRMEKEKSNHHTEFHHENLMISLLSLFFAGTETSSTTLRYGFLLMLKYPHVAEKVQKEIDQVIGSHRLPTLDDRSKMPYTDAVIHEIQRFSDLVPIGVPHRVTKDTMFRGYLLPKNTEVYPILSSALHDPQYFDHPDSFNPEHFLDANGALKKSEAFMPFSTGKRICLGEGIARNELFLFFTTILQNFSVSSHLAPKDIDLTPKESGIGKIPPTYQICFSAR
MAL12: Alpha-glucosidase MAL12 (MAL12, Saccharomyces cerevisiae S288c, UniProt P53341)
Chain of UniProt P53341 (whole entry, looked up): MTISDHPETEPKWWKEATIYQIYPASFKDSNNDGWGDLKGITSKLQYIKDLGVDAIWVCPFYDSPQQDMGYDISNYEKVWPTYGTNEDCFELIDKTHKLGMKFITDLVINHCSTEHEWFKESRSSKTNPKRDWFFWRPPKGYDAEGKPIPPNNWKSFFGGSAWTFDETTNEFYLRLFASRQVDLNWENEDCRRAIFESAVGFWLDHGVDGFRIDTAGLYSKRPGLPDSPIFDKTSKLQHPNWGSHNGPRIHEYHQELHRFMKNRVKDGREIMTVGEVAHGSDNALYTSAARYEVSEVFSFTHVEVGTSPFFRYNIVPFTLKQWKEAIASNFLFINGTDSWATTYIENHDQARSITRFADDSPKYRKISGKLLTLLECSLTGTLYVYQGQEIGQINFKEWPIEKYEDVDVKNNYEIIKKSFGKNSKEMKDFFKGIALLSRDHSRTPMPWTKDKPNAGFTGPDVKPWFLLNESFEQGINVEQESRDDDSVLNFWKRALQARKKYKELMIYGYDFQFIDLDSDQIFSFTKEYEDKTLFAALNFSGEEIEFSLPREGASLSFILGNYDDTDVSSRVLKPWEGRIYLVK
KCNK18: Potassium channel subfamily K member 18 (KCNK18, Homo sapiens, UniProt Q7Z418)
Chain of UniProt Q7Z418 (whole entry, looked up): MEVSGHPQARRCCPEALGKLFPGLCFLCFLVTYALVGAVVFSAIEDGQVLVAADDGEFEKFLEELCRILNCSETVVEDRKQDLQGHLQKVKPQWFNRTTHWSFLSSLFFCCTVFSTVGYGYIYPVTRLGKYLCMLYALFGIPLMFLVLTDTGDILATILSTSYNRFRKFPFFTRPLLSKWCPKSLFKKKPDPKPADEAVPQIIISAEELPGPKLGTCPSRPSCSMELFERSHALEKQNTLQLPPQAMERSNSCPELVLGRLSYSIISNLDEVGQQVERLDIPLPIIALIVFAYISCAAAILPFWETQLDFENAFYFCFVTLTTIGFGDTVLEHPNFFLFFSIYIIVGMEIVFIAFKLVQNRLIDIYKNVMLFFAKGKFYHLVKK
Chain of UniProt Q6NS38 (whole entry, looked up): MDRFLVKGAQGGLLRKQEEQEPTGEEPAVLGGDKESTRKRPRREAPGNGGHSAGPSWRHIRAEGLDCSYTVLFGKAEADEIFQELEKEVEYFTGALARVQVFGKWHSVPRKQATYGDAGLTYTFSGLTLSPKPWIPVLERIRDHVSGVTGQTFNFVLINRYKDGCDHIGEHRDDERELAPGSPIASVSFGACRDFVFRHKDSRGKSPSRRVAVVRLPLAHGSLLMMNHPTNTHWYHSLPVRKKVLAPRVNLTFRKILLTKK
Chain of UniProt P07384 (whole entry, looked up): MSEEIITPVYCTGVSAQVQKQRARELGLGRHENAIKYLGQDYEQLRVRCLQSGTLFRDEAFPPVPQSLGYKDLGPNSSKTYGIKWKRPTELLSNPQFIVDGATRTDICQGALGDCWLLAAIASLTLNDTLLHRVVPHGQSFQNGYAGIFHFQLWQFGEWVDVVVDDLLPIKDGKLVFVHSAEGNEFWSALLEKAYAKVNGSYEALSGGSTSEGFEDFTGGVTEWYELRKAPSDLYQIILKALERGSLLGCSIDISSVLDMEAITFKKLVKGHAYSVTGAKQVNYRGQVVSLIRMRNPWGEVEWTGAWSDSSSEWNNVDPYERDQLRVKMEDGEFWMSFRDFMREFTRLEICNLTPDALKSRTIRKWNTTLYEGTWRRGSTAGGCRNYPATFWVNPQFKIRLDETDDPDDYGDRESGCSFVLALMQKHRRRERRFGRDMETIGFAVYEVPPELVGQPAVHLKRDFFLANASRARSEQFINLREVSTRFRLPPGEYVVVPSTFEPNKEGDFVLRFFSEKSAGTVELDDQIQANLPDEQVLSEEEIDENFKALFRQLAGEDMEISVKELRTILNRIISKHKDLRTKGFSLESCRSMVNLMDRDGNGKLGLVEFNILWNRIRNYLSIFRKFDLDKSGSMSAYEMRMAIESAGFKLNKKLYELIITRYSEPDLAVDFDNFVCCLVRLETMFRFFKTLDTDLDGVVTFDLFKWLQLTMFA
Chain of UniProt Q8WXS5 (whole entry, looked up): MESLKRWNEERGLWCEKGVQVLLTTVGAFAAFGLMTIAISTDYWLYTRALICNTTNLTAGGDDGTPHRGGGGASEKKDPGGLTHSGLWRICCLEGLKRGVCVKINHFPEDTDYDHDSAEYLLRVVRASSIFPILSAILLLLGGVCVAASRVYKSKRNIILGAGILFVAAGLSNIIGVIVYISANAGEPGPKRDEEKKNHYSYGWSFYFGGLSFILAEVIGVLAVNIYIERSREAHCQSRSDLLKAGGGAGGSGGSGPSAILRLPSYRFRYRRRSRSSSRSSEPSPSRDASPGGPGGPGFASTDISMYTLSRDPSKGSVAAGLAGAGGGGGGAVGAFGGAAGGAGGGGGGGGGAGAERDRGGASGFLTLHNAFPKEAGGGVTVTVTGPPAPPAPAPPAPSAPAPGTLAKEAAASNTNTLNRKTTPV
Chain of UniProt P63252 (whole entry, looked up): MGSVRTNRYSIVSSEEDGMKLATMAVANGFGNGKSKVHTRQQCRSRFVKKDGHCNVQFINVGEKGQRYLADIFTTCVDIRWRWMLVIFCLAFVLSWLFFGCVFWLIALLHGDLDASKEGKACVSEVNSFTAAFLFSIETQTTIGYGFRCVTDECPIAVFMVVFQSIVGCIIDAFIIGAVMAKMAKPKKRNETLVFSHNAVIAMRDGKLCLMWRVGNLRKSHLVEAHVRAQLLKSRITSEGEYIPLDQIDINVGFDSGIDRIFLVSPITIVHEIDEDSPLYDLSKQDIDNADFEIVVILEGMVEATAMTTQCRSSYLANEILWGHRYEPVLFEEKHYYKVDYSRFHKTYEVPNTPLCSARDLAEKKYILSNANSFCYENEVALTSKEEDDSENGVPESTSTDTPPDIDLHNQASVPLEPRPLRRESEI

N#Cc1ccc(OCC(O)Cn2c(=N)n(Cc3ccccc3)c3ccccc32)cc1 (stereo not shown)
IC50 (KCNJ13 M125R; ion flux, inhibitor): 19.7 µM

CC(C)=CCC/C(C)=C/COc1c2ccoc2cc2oc(=O)ccc12
IC50 (SLCO2B1 (Homo sapiens, UniProt O94956); transporter uptake, inhibitor, radiometric; MDCK-II; 3 min, pH 6): > 300 µM

N#Cc1cc(F)cc(OCC(O)Cn2c(=N)n(Cc3ccccc3)c3ccccc32)c1 (stereo not shown)
IC50 (KCNJ13 M125R; ion flux, inhibitor): 8.27 µM

COc1ccc(Cl)cc1C(=O)NCCc1ccc(S(=O)(=O)NC(=O)NC2CCCCC2)cc1
IC50 (Na+/K+-ATPase; ouabain-sensitive ATPase activity, inhibitor; HIT cell membranes; 37 °C, partial inhibition, together with: ATP 3 mM): 0.0175 µM

Cc1ccc2nc(C(C)C)n(-c3ccc4[nH]c(=O)sc4c3)c2n1
IC50 (GRIA1/CACNG8 (Homo sapiens, UniProt P42261+Q8WXS5); calcium influx, antagonist, FLIPR; HEK293 expressing GluA1o; together with: glutamate 100 µM): 0.0015 µM

CC12CC3CC(C)(C1)CC([N+](C)(C)C)(C3)C2
IC50 (Gria2 (Rattus norvegicus, UniProt P19491); ion current, inhibitor, whole-cell patch-clamp; holding potential -60 mV, together with: glutamate 10 mM, cyclothiazide 100 µM): 384 ± 8 µM

CC(C)c1ccc(OCC(O)Cn2c(=N)n(Cc3ccccc3)c3ccccc32)cc1 (stereo not shown)
IC50 (Inward rectifier potassium channel 4; ion flux, inhibitor, fluorescence): 5.03 µM

C/C=C1\NC(=O)[C@H]2CSSCC/C=C/[C@H](CC(=O)N[C@H](C(C)C)C(=O)N2)OC(=O)[C@H](C(C)C)NC1=O
IC50 (HDAC (Lucilia cuprina egg nuclear extract); enzyme activity, inhibitor, fluorometric): 1.4e-05 µM

Cc1cccc(OCC(O)Cn2c(=N)n(Cc3ccccc3)c3ccccc32)c1 (stereo not shown)
IC50 (Inward rectifier potassium channel 4; ion flux, inhibitor, fluorescence): 7.53 µM

COc1cc(/C=N/NC(=O)COc2cc(C)cc3oc(=O)cc(C)c23)ccc1OCc1cn(Cc2ccccc2)nn1
IC50 (Urease; enzyme activity, inhibitor): 14.8 ± 1.02 µM

O=S(=O)(c1cc(C(=S)Nc2cc(F)c(F)c(F)c2)c(Cl)cc1Cl)N1CCOCC1
IC50 (LPAR1 (Homo sapiens, UniProt Q92633); Ca2+ mobilization, antagonist; RH7777; together with: LPA at EC50): > 100 µM

Nc1nc2c(ncn2[C@@H]2O[C@H](COP(=O)(O)OP(=O)(O)O)[C@@H](O)[C@H]2O)c(=O)[nH]1
IC50 (Tubulin alpha-1B chain/TUBB2B (Bos taurus, UniProt P81947+Q6B856); tubulin assembly, inhibitor, turbidimetry; tubulin 30 µM, GTP 20 µM, together with: paclitaxel 30 µM): 260 ± 50 µM

Cc1cccc(C)c1NC(=S)N1CCc2ccccc2C1
IC50 (Urease; enzyme activity, inhibitor, absorbance): 11.2 µM

CNC(CCC(N)C(=O)O)CC1OC(n2cnc3c(N)ncnc32)C(O)C1O (stereo not shown)
IC50 (SETD2 (Homo sapiens, UniProt Q9BYW2); enzyme activity, inhibitor, radiometric methylation; together with: SAM and peptide at sub-Km): > 100 µM

O=C(O)c1cc(O)c2c(c1)C(=O)c1cccc(O)c1C2=O
IC50 (ALKBH2 (Homo sapiens, UniProt Q6NS38); 3-methylcytosine repair, inhibitor, HPLC; 1 h, 37 °C, together with: ssDNA 16mer 5 µM): 52.7 µM

Cc1nnc(CNc2cc(N3CCN(S(=O)(=O)c4ccc(F)cc4)CC3)ccc2[N+](=O)[O-])s1
IC50 (Kir1 channel protein; ion flux, inhibitor, fluorescence): 0.381 µM

Cn1c(=N)n(CC(O)COc2ccc(C(F)(F)F)cc2)c2ccccc21 (stereo not shown)
IC50 (Inward rectifier potassium channel 4; ion flux, inhibitor, fluorescence): 4.9 µM

CC(C)C[C@H](NC(=O)[C@H](CC(N)=O)NC(=O)[C@H](CC(C)C)NC(=O)[C@@H](NC(=O)[C@@H](NC(=O)[C@@H]1CCCN1C(=O)[C@H](CCCNC(=N)N)NC(=O)[C@H](CCCCN)NC(=O)[C@@H]1CCCN1C(=O)[C@H](CCCNC(=N)N)NC(=O)[C@H](CCCNC(=N)N)NC(=O)[C@H](CCCNC(=N)N)NC(=O)[C@H](CCCNC(=N)N)NC(=O)[C@H](CCC(N)=O)NC(=O)[C@H](CCCNC(=N)N)NC(=O)[C@H](CCCNC(=N)N)NC(=O)[C@H](CCCCN)NC(=O)[C@H](CCCCN)NC(=O)[C@H](CCCNC(=N)N)NC(=O)CNC(=O)[C@@H](N)Cc1ccc(O)cc1)[C@@H](C)O)[C@@H](C)O)C(=O)N[C@@H](Cc1ccccc1)C(N)=O
IC50 (MAPK8 (Homo sapiens, UniProt P45983); kinase activity, inhibitor; 60 min, pH 7.4, 30 °C, together with: 1 µM c-Jun substrate, 1 µM ATP): 0.034 ± 0.008 µM

Cn1ncc(Nc2ccc3c(c2)CCN(CCCCCNC(=O)COc2cccc4c2C(=O)N(C2CCC(=O)NC2=O)C4=O)C3)c(Cl)c1=O (stereo not shown)
IC50 (Chromatin remodeling regulator CECR2, bromodomain (CECR2, Homo sapiens, UniProt Q9BXF3); binding, AlphaScreen; bromodomain, together with: H4 acetylated peptide, 100 nM): 0.053 µM

CCN(CCO)CCC[C@H](C)Nc1ccnc2cc(Cl)ccc12
IC50 (KCNJ2 (Homo sapiens, UniProt P63252); ion current, inhibitor, patch clamp): 6.5 µM

CCn1c(=O)/c(=C2\Sc3cc(Cl)ccc3N2C)s/c1=C\c1scc[n+]1Cc1ccccc1
IC50 (Heat shock 70 kDa protein 1A, with Bag2 (HSPA1A, Homo sapiens, UniProt P0DMV8); protein-protein interaction, inhibitor, flow cytometry protein interaction; together with: labeled Bag2 50 nM): 1.2 ± 0.1 µM

S=C(Nc1ccc(Br)cc1)N1CCc2ccccc2C1
IC50 (Urease; enzyme activity, inhibitor, absorbance): 30.7 µM

C[C@@H]1O[C@H](CNS(=O)(=O)c2ccn(C)n2)[C@@H](O)[C@H](O)[C@@H]1O
IC50 (fucose-binding lectin LecB (Pseudomonas aeruginosa, UniProt A0A0H2ZE85)): 0.73 to 0.96 µM

Nc1ncnc2c1ncn2[C@@H]1O[C@H](CSCC[C@H](N)C(=O)O)[C@@H](O)[C@H]1O
IC50 (Histone-lysine N-methyltransferase 2A, SET domain (KMT2A, Homo sapiens, UniProt Q03164); FL-NAH displacement, fluorescence polarization; 30 min, isolated SET domain, together with: 50 nM FL-NAH): 4 ± 0.5 µM

CC(C)(COP(=O)(O)OP(=O)(O)OC[C@H]1O[C@@H](n2cnc3c(N)ncnc32)[C@H](O)[C@@H]1OP(=O)(O)O)[C@@H](O)C(=O)NCCC(=O)NCCS
IC50 (N-alpha-acetyltransferase 50 (Homo sapiens, UniProt Q9GZZ1); binding, BRET tracer displacement; together with: Cy3-labelled tracer): 7.3 µM

N#Cc1ccc([C@@H](Cc2ccc(OS(N)(=O)=O)c(Br)c2)n2cncn2)cc1
IC50 (Steryl-sulfatase (STS, Homo sapiens, UniProt P08842); enzyme activity, inhibitor): 1.15 ± 0.05 µM

CC(C)C[C@H](NC(=O)N1CCOCC1)C(=O)N[C@H](/C=C/S(=O)(=O)c1ccccc1)CCc1ccccc1
IC50 (CTSC (Bos taurus, UniProt Q3ZCJ8); enzyme activity, inhibitor, fluorescence; pH 5.5, with preincubation): 5.16 µM

Cc1cnc(CNc2cc(N3CCN(S(=O)(=O)c4ccc(F)cc4)CC3)ccc2[N+](=O)[O-])o1
IC50 (Kir1 channel protein; ion flux, inhibitor, fluorescence): 0.147 µM

CC1(C)S[C@@H]2[C@H](/N=C/N3CCCCCC3)C(=O)N2[C@H]1C(=O)O
IC50 (dacC (Pseudomonas aeruginosa, UniProt G3XD74); binding, Bocillin FL competition; Pseudomonas aeruginosa 1771 membranes; PBP 5, together with: Bocillin FL 100 µM): > 39.9 µM

CC(C)OCCn1c(=S)[nH]c(=O)c2[nH]ccc21
IC50 (Myeloperoxidase (MPO, Homo sapiens, UniProt P05164); HOCl production; 6 min, enzyme 10 nM, together with: H2O2 50 µM, taurine 5 mM): 0.59 µM

O=C(Nc1nc(-c2ccc(F)cc2)cs1)[C@H](Cc1c[nH]cn1)NC(=O)[C@@H]1O[C@H]1C(=O)O
IC50 (CAPN1 (Homo sapiens, UniProt P07384); inhibitor, FRET; 20 min): > 1 µM

CN1CCN(CCC(=O)Nc2ccc3c(c2)Sc2cccc(-c4cc(=O)cc(N5CCOCC5)o4)c2S3)CC1
IC50 (PI4K, human; enzyme activity, inhibitor): > 10 µM

COc1cc2c(cc1OC)-c1c/c(=N\c3c(C)cc(C)cc3C)n(C)c(=O)n1CC2
IC50 (PDE2A (Homo sapiens, UniProt O00408); enzyme activity, inhibitor, FP): 2 µM

C#CCOc1ccc2c(c1)OC(c1ccccc1)CC2=O (stereo not shown)
IC50 (Cyp2b1; enzyme activity, inhibitor; supersomes; together with: pentoxyresorufin 5 µM): > 10 µM

Cc1cc(OCC(=O)N/N=C/c2ccc(OCc3cn(Cc4ccc(Br)cc4)nn3)cc2)c2c(C)cc(=O)oc2c1
IC50 (Urease; enzyme activity, inhibitor): 11.8 ± 1.32 µM

C#CCOc1cccc(-c2cc(=O)c3ccccc3o2)c1
IC50 (Cyp2b1; enzyme activity, inhibitor; supersomes; together with: pentoxyresorufin 5 µM): > 10 µM

FC(F)(F)c1cccc(NC(=S)N2CCc3ccccc3C2)c1
IC50 (Urease; enzyme activity, inhibitor, absorbance): 26.8 µM

N#CC1=C(N)Oc2c(c(=O)[nH]c3ccccc23)C1c1cccc(OCc2cn(Cc3ccc(F)cc3)nn2)c1 (stereo not shown)
IC50 (MAL12; enzyme activity): 8.87 ± 0.03 µM

C=C(C)CCOP(=O)(O)OP(=O)(O)OP(=O)(O)OC[C@H]1O[C@@H](n2cnc3c(N)ncnc32)[C@H](O)[C@@H]1O
IC50 (CDK7 (Homo sapiens, UniProt P50613); enzyme activity, inhibitor, HotSpot kinase; together with: ATP 1 µM): 1.6 µM

N=c1n(Cc2ccccc2)c2ccccc2n1CC(O)COc1ccc(Cl)cc1 (stereo not shown)
IC50 (KCNJ13 M125R; ion flux, inhibitor): 5.17 µM

CC(/C=C/C(=O)NO)=C\[C@@H](C)C(=O)c1ccc(N(C)C)cc1
IC50 (HDAC (Lucilia cuprina egg nuclear extract); enzyme activity, inhibitor, fluorometric): 0.016 µM

COc1cccc(-c2cc(=O)c3ccccc3o2)c1N
IC50 (KCNK18; ion flux, inhibitor): 14.6 µM

[Cl-].[Cl-].[Cl-].[Gd+3]
IC50 (human MMP-2 catalytic domain; inhibitor; pH 7.5, 37 °C, 45 min preincubation, together with: DQ-gelatin): 8.4 ± 0.22 µM

N#CC1=C(N)Oc2c(c(=O)[nH]c3ccccc23)C1c1cccc(OCc2cn(Cc3ccc(Br)cc3)nn2)c1 (stereo not shown)
IC50 (MAL12; enzyme activity): 9.19 ± 0.17 µM

Clc1nc2n[nH]nc2nc1Cl
IC50 (Genome polyprotein, NS2B-NS3 protease (dengue virus type 2, UniProt P29990); enzyme activity, inhibitor; Dengue virus; pH 8.0, together with: 20 µM Pyr-RTKR-AMC): > 10 µM

C[C@@H](CNCc1ccccc1)N1C[C@H](CCCNC(=N)N)N(CCc2cccc(F)c2)C1=S
IC50 (NPY1R (Homo sapiens, UniProt P25929); receptor activation, antagonist, FLIPR): > 10 µM

COc1c(O)cc(-c2oc3cc(O)cc(O)c3c(=O)c2O)cc1O
IC50 (α-glucosidase (Saccharomyces cerevisiae); inhibitor; together with: pNPG): 205 ± 5.6 µM

OCl
IC50 (Helix pomatia arylsulfatase; enzyme activity; 1 h, pH 5.8, 37 °C, together with: p-nitrophenyl sulfate): 91.8 ± 10 µM

O=c1cc(-c2cccc3ccccc23)[nH][nH]1
IC50 (ALPL (Homo sapiens, UniProt P05186); enzyme activity, inhibitor, luminescence; together with: 0 M DEA, 50 µM CDP-star): 3.21 ± 0.168 µM

COC(=O)C1=C(C)NC(C)=C([N+](=O)[O-])[C@H]1c1ccccc1C(F)(F)F
IC50 (CACNA1H (Homo sapiens, UniProt O95180); calcium current, blocker, automated patch clamp; holding potential -90 mV; last pulse of train, together with: 1 Hz pulse train): 7.2 ± 0.7 µM

Cc1nc2ccccc2n1Cc1ccc(C(=O)NO)cc1
IC50 (HDAC11 (Homo sapiens, UniProt Q96DB2); concentration not given): 9.81 µM

COCC(=O)O[C@]1(CCN(C)CCCc2nc3ccccc3[nH]2)CCc2cc(F)ccc2[C@@H]1C(C)C
IC50 (KCNK18; ion flux, inhibitor): 2.48 µM

Excerpt of the above:
CC(C)(COP(=O)(O)OP(=O)(O)OC[C@H]1O[C@@H](n2cnc3c(N)ncnc32)[C@H](O)[C@@H]1OP(=O)(O)O)[C@@H](O)C(=O)NCCC(=O)NCCS
IC50 (N-alpha-acetyltransferase 50 (Homo sapiens, UniProt Q9GZZ1); binding, BRET tracer displacement; together with: Cy3-labelled tracer): 7.3 µM

Clc1nc2n[nH]nc2nc1Cl
IC50 (Genome polyprotein, NS2B-NS3 protease (dengue virus type 2, UniProt P29990); enzyme activity, inhibitor; Dengue virus; pH 8.0, together with: 20 µM Pyr-RTKR-AMC): > 10 µM

COc1c(O)cc(-c2oc3cc(O)cc(O)c3c(=O)c2O)cc1O
IC50 (α-glucosidase (Saccharomyces cerevisiae); inhibitor; together with: pNPG): 205 ± 5.6 µM

O=C(O)c1cc(O)c2c(c1)C(=O)c1cccc(O)c1C2=O
IC50 (ALKBH2 (Homo sapiens, UniProt Q6NS38); 3-methylcytosine repair, inhibitor, HPLC; 1 h, 37 °C, together with: ssDNA 16mer 5 µM): 52.7 µM

CNC(CCC(N)C(=O)O)CC1OC(n2cnc3c(N)ncnc32)C(O)C1O (stereo not shown)
IC50 (SETD2 (Homo sapiens, UniProt Q9BYW2); enzyme activity, inhibitor, radiometric methylation; together with: SAM and peptide at sub-Km): > 100 µM

N#CC1=C(N)Oc2c(c(=O)[nH]c3ccccc23)C1c1cccc(OCc2cn(Cc3ccc(F)cc3)nn2)c1 (stereo not shown)
IC50 (MAL12; enzyme activity): 8.87 ± 0.03 µM
